Published values gathered from unrelated publications.
Every numbered part comes from another study and shows a few of its results, in no order. Substitutions count along the parent as printed.
Chain of UniProt P35916 (whole entry, looked up): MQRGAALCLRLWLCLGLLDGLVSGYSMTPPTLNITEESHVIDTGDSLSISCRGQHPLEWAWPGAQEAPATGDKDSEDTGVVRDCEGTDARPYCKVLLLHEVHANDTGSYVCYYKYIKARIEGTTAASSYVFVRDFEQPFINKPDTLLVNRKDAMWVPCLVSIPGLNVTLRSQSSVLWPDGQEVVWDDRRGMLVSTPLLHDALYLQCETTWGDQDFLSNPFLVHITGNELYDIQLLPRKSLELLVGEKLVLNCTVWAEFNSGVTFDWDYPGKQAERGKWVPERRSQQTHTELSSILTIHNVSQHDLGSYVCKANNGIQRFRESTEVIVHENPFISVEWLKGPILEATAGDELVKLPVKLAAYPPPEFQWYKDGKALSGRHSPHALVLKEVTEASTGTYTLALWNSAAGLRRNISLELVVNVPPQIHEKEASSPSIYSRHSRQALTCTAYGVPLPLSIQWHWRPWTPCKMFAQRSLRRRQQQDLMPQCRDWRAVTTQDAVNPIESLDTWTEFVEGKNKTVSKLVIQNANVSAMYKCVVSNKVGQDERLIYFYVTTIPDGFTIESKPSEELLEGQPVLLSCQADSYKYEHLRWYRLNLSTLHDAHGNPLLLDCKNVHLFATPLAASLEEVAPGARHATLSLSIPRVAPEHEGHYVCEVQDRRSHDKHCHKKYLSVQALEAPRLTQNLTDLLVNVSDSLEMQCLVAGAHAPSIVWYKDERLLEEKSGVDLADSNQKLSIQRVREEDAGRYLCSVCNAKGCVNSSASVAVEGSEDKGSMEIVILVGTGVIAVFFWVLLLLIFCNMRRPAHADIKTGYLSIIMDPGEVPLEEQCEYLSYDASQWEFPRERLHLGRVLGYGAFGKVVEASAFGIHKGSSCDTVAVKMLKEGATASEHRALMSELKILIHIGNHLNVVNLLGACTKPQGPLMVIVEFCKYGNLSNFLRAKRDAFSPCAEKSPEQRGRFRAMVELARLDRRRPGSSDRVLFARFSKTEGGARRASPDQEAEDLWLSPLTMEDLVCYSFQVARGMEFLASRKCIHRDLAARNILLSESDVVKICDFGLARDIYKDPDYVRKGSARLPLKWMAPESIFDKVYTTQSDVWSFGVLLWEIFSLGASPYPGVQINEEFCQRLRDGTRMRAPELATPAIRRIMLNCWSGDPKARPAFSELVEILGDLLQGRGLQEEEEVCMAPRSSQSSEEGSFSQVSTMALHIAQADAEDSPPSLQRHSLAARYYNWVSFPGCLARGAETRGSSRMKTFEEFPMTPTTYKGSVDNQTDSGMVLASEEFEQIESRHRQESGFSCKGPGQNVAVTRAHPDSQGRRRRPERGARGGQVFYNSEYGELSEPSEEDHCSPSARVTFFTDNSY
Chain of UniProt P30291 (whole entry, looked up): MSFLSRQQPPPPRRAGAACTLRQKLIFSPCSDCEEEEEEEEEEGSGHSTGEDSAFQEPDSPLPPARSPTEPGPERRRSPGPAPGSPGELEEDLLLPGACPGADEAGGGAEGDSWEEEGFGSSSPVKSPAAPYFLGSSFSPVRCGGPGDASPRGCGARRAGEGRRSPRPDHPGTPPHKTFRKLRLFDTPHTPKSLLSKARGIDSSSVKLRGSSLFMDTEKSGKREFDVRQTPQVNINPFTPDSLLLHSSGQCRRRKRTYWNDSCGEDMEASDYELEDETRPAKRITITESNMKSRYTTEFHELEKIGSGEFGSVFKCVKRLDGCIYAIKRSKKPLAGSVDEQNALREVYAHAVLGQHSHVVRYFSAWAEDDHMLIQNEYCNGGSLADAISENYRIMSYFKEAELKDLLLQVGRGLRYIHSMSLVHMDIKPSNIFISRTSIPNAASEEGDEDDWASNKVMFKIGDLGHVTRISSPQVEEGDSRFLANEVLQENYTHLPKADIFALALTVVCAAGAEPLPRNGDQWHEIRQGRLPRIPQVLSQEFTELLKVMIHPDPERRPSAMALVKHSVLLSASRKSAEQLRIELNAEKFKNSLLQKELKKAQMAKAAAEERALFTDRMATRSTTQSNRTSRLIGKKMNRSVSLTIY
Chain of UniProt Q9Y2K2 (whole entry, looked up): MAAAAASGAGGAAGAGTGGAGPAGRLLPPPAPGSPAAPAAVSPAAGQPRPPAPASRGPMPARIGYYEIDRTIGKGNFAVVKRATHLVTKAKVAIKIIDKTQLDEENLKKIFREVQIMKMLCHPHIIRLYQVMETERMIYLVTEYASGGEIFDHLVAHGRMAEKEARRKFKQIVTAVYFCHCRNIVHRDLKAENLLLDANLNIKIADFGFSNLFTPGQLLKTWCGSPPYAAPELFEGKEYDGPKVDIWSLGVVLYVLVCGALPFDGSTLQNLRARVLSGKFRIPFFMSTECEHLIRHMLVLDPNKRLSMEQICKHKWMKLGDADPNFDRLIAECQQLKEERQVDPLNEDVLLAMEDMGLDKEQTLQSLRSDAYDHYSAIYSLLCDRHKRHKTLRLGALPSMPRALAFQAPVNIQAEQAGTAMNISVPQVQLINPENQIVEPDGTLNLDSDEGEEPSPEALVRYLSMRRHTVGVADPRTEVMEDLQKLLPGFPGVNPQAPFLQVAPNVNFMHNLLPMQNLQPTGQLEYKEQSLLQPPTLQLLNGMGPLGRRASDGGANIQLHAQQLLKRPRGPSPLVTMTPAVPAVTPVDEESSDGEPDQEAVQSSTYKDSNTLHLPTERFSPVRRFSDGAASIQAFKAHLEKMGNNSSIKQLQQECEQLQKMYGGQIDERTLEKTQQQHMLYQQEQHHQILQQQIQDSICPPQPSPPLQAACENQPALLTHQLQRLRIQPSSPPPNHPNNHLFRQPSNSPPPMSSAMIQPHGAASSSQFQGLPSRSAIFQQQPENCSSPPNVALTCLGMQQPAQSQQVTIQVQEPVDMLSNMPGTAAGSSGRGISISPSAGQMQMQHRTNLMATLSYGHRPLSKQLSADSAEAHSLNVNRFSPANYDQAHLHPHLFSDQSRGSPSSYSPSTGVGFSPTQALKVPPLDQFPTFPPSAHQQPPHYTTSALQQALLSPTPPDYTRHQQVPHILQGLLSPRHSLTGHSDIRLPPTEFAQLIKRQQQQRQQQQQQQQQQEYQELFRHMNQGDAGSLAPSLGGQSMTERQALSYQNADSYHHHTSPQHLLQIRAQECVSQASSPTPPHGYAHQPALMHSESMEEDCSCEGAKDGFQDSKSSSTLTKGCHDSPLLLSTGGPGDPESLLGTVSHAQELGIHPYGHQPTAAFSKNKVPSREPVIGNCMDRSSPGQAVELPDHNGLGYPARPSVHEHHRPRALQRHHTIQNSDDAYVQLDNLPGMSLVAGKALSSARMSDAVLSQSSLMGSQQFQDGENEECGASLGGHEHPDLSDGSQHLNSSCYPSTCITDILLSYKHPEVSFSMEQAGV
Chain of UniProt Q8WU08 (whole entry, looked up): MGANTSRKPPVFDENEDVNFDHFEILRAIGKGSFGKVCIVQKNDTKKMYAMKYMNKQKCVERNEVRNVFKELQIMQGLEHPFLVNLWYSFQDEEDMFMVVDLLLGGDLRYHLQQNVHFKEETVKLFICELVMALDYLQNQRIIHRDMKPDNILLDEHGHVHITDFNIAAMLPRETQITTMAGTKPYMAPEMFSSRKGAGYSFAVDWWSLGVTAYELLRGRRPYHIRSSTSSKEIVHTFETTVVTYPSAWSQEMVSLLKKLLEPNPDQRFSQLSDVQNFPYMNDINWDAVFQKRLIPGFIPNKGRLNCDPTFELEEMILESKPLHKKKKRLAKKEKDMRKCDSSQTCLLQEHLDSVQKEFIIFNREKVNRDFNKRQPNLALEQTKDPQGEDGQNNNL

Sample 1
SMILES: CO[C@@H](C)c1c(Nc2ccc([C@H](N(C)C(=O)C3CCS(=O)(=O)CC3)C(F)(F)F)cc2)cnc2cc(Cl)nn12
Read-out: cell-free assay
Technique: competition with immobilised ligand
Tested at: 1 µM
Measurement: remaining binding
PRKCH (Homo sapiens, UniProt P24723): 86%
MELK (Homo sapiens, UniProt Q14680): 59%
Ribosomal protein S6 kinase alpha-4, C-terminal kinase domain (RPS6KA4, Homo sapiens, UniProt O75676): 100%
STK32A (Homo sapiens, UniProt Q8WU08): 100%
WEE1 (Homo sapiens, UniProt P30291): 88%
FLT4 (Homo sapiens, UniProt P35916): 89%
SIK3 (Homo sapiens, UniProt Q9Y2K2): 100%

Sample 2
Target: Sal-like protein 4, full length isoform A (SALL4, Homo sapiens, UniProt Q9UJQ4, residues 1-1053)
Chain of UniProt Q9UJQ4 (whole entry, looked up): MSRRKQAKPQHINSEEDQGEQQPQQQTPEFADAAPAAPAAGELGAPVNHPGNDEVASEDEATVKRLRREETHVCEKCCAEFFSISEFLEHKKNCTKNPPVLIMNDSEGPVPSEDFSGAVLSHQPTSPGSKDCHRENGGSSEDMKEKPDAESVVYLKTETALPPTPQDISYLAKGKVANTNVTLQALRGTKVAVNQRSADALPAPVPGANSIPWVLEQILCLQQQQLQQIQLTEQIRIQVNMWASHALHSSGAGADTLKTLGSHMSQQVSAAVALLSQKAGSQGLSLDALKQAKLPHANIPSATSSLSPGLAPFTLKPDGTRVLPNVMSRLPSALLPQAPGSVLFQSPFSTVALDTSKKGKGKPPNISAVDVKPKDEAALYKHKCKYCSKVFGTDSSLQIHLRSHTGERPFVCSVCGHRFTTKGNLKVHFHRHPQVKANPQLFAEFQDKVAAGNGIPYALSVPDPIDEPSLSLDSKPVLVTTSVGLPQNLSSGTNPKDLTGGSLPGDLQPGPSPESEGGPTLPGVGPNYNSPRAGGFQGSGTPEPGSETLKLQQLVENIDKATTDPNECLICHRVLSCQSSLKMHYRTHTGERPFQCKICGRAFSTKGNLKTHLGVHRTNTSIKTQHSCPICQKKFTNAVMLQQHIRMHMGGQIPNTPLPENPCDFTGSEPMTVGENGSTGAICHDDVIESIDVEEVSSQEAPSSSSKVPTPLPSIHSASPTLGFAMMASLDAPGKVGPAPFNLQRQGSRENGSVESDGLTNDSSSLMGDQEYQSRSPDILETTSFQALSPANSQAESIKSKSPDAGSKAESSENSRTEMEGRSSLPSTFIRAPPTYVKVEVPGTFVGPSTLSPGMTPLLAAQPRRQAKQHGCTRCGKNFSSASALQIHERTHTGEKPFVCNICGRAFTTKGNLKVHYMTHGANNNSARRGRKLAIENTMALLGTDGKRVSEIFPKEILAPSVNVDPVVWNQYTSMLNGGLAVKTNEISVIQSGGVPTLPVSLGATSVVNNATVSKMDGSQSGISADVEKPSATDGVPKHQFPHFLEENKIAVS
Technique: universal PBM
Molecule type: double-stranded DNA, one strand shown
Sample: in vitro
Tested at: 600 nM
Notes: 8-mer, flanks averaged, mean of replicates
Reading: higher = stronger binding
Measurement: E-score
CTTCGCTA: 0.00398
CTGAATTA: 0.269
CTACCTAA: 0.0777
ACACGTGA: 0.00276
GACCTGAC: -0.173
CTTCTAGA: 0.0891
ATAAGAAG: 0.233
GAGCTACA: -0.0531

Sample 3
Target: Vascular endothelial growth factor receptor 3 (FLT4, Homo sapiens, UniProt P35916)
Read-out: enzyme activity
Mode: inhibitor
Tested at: 0.5 µM
Relative to: control
Measurement: remaining activity
COc1ccc(C(=O)Nc2sc3c(c2C(N)=O)CCCC3)cc1OC: 110%
O=C(O)c1ccc2c3c1cccc3c(=O)n1c3ccccc3nc21: 82.5%
COc1ccc(CNC(=O)Nc2ncc([N+](=O)[O-])s2)cc1: 91.2%
Nc1ccc2ncnc(NCCc3ccc(Oc4ccccc4)cc3)c2c1: 101%
O=C1NC(=O)C(c2cn(CCCn3ccnc3)c3ccccc23)=C1Nc1ccccc1: 95.8%
Nc1[nH]nc2nc3ccccc3nc12: 117%
Oc1ccc(-c2nc(-c3ccncc3)c(-c3ccc(F)cc3)[nH]2)cc1: 101%
O=C1NC(=O)C(c2cn(CCCO)c3ncccc23)=C1c1cnccn1: 92.3%
CCOC(=O)c1c(C)[nH]c(/C=C2\C(=O)Nc3ccccc32)c1C: 79.2%
N#CC(C#N)=C(N)/C(C#N)=C/c1ccc(O)cc1: 95.9%
CO[C@H]1C[C@@H]2CC[C@@H](C)[C@@](O)(O2)C(=O)C(=O)N2CCCC[C@H]2C(=O)O[C@H]([C@H](C)C[C@@H]2CC[C@@H](O)[C@H](OC)C2)CC(=O)[C@H](C)/C=C(\C)[C@@H](O)[C@@H](OC)C(=O)[C@H](C)C[C@H](C)/C=C/C=C/C=C/1C: 116%
OCC(O)CCON=C1C(c2c(O)[nH]c3ccccc23)=Nc2ccccc21 (stereo not shown): 22.3%
CC(C)[C@H](CO)Nc1nc(Nc2cc(N)cc(Cl)c2)c2ncn(C(C)C)c2n1: 80.7%
COc1cc2ncnc(Nc3ccc(F)c(Cl)c3)c2cc1OCCCN1CCOCC1: 92.2%

Sample 4
Target: CCND1, cyclin fold, Cln2 fusion (human)
Technique: yeast growth competition, sequencing
Sample: yeast
Notes: strong parent motif
Relative to: not given
Reading: higher = stronger binding
Measurement: normalised enrichment score
Parent: RBL1 docking peptide (human); GSAKRRLFGEDPP; partner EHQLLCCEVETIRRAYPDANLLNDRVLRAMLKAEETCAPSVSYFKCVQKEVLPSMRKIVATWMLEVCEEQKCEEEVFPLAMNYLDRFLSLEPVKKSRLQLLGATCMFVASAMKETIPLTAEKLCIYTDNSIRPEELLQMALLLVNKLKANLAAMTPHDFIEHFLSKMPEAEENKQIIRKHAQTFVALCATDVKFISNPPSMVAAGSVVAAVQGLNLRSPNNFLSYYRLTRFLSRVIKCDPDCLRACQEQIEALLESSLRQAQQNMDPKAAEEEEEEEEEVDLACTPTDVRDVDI
GSAKRWLFGEDPP [R6W]: -0.246
GSNKRRLFGEDPP [A3N]: 0.0525
GSAKRRLFGEDPC [P13C]: 1.46
GSAKRRKFGEDPP [L7K]: 1.46
GSAKLRLFGEDPP [R5L]: 0.927
GSAKRRLFGWDPP [E10W]: 0.514
GSATRRLFGEDPP [K4T]: 1.18
GSAKRRLFGHDPP [E10H]: 1.11

Repeated from above (sample 4):
GSNKRRLFGEDPP [A3N]: 0.0525
GSAKRRLFGEDPC [P13C]: 1.46
GSAKRRKFGEDPP [L7K]: 1.46
GSAKLRLFGEDPP [R5L]: 0.927
GSAKRRLFGWDPP [E10W]: 0.514
